# Assay results of several laboratories.
# Lines come from different studies, so protocols differ. “And” joins repeats or separate records; there may be more than shown. Numbers after ± are the reported error.
# UniProt Q9Y5L0, sequence (whole entry, looked up): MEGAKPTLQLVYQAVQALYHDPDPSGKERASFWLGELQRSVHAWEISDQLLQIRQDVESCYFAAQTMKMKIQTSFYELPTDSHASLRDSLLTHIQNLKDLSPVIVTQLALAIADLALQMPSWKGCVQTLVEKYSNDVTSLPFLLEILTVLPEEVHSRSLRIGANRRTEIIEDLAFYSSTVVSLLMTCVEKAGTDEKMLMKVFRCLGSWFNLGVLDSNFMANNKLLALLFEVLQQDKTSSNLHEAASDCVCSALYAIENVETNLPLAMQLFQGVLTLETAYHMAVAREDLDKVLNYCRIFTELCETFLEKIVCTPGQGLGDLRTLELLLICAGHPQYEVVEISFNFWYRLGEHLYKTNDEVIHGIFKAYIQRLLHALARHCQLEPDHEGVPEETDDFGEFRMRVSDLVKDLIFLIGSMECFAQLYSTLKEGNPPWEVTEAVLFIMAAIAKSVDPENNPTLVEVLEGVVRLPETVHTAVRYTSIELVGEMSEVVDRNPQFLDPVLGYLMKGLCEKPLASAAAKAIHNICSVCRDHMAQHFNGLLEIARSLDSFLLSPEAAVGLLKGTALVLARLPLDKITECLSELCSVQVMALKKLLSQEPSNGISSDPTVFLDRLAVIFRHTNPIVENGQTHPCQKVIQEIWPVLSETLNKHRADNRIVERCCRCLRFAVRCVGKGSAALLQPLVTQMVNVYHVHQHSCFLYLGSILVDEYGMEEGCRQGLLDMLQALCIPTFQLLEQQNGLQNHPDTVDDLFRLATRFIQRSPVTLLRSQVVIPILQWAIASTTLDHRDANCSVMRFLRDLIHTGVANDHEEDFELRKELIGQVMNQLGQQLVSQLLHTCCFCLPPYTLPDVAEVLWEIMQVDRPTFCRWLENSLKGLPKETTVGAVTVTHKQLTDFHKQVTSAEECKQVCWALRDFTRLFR
Structure (SMILES),target or system,test,system,conditions,how to read,endpoint,value
COc1c(CCC[P+](c2ccccc2)(c2ccccc2)c2ccccc2)cc2c(c1OC)OCO2.[I-],COLO 205,SRB,,,,LC50,> -4 log M
Cc1cc(C(C)(C)c2ccc(O)c(C)c2)ccc1O,HepG2 spheroids,planimetry,,"160 µM, 96 h",relative to: solvent control,spheroid surface area,1.35 fold
CC(C)[C@H](N)C(=O)N1CCC[C@H]1B(O)O,EA.hy926 CARD8 knockout,CellTiter-Glo,,concentration not given,,viability,96.6% and 97% and 96.9%
Nc1ncnc2c1ncn2[C@@H]1O[C@@H]2COP(=O)(O)O[C@H]3[C@@H](O)[C@H](n4cnc5c(=O)[nH]cnc54)O[C@@H]3COP(=O)(O)O[C@H]2[C@H]1O,HFF-1,"RNA sequencing, item: Reactome R-HSA-3906995",,downregulated pathway,relative to: Zika virus alone,pathway fold enrichment,6.02
CN1CCN(C2(CNC3CCN(c4cccc(-c5cc6cc(F)ccc6[nH]5)c4)CC3)CCC2)CC1,OVCAR-5,,,,,CC50,6.71 µM
CCN(CC)c1ccc(C=NNC(=O)CSc2nc3ccccc3c(=O)n2Cc2ccc(S(N)(=O)=O)cc2)c(O)c1,OVCAR-5,NCI five-dose screen,,,,CC50,> 100 µM
Oc1ccc(C2(c3ccc(O)cc3)c3ccccc3-c3ccccc32)cc1,HepG2 spheroids,Hoechst flow cytometry,,"1 µM, 96 h",,G2 phase cells,21.6 ± 1.79%
Oc1cc(Cl)ccc1Oc1ccc(Cl)cc1Cl,HepG2,"high content imaging, item: nuclear size",,"24 h, representative mode",,point of departure,5.62 µM and 9.55 µM
C/C=C(/C)C(=O)O[C@H]1C(C)=C2[C@H]([C@@H]1OC(=O)CCCCCCC)[C@@](C)(OC(C)=O)C[C@H](OC(=O)CCC)[C@@]1(O)[C@H]2OC(=O)[C@@]1(C)O,HEK-293T,"RNA-seq GSEA, item: Hallmark interferon alpha response",,"500 nM, 6 h",direction not given,normalized enrichment score,-1.06
COC[C@@H]([C@H](O)[C@H](O)C(=O)NCC[C@H](C)c1nc(/C=C/C[C@@H]2O[C@]3(C[C@@H](O)[C@@H]2C)O[C@H]([C@H](C[C@H](O)[C@H](C)[C@H](O)[C@H](C)/C=C(C)/C(C)=C/C=C/C(C)=C\C#N)OC)[C@H](OP(=O)(O)O)C3(C)C)co1)N(C)C,MDA-MB-231 BAX/BAK siRNA knockdown,"cell viability, CellTiter-Glo",,,direction not given,Z score,1.21
Cn1nccc1Nc1nccc(-c2cc3c(s2)C(C)(C)N(CCN2CCOCC2)C3=O)n1,HCT116,IncuCyte,,"concentration not given, 8 (unit not given)",,PI-positive cells,4.08 count and 3.08 count and 2.42 count
CCN(CC)CCOC(=O)C(O)(c1ccccc1)c1ccccc1,THP-1,pyroptotic LDH release,,"2 µM, 40 min, together with: LPS then nigericin",,inhibition,24.7%
Cc1c(O)c(O)cc2c1CC=C1[C@@]2(C)CC[C@@]2(C)[C@@H]3C[C@](C)(C(=O)O)CC[C@]3(C)CC[C@]12C,human iPSC cardiomyocytes,plate-normalised,,"concentration not given, hit retest","relative to: vehicle controls, SDs below control",MyBP-C level change,14.1 SD
O=c1cc(-c2ccccc2)oc2c(O)c(O)ccc12,SH-SY5Y Aβ-GFP cells,"Aβ aggregation inhibition, GFP folding reporter",,,,EC50,10.7 µM
CC(C)(C)c1cc(C=C(C#N)C#N)cc(Br)c1O,hCMEC/D3,"outcome: no effect, Western blot, item: RAGE",,"100 µM, no insulin",,membrane expression,no effect
CS(=O)(=O)c1ccc(C(=O)C2C(=O)CCCC2=O)c([N+](=O)[O-])c1,THP-1,pyroptotic LDH release,,"2 µM, 40 min, together with: LPS then nigericin",,inhibition,-25.8%
COc1c(C)c2c(c(O)c1C/C=C(\C)CCC(=O)O)C(=O)OC2,C-33-A,cell proliferation,,,,IC50,1.05 µM
CC(C)N1CCC(NC2CCN(c3cccc(-c4cc5cc(F)ccc5[nH]4)c3)CC2)CC1,KM12,,,,,CC50,6.19 µM
Cn1cncc1C1=CN(c2ncnc3[nH]cnc23)CCS1,OVCAR-5,,,ovarian cancer,,CC50,> 200 µM
C/C(=C\C(=O)Nc1ccccc1C(=O)O)c1ccc2ccccc2c1,human coronavirus OC43,virus-induced cell killing,MRC-5,maximum over 10 doses,,maximum inhibition,0%
COc1ccc2c(c1)[nH]c1c(C)nccc12,DU-145,"bisulfite pyrosequencing, item: RASSF1A promoter CpG site 20",,"10 µM, 16 h",,DNA methylation,83.8%
N[C@@H](C[18F])C(=O)O,U-87 MG,,,"concentration not given, together with: L-serine",,inhibition of cellular uptake,73%
Cc1cnc2ccc3c(nc(N)n3C)c2n1,BALB/c 3T3,colony forming efficiency,,1 µM,,colony number,91 colonies per plate and 100 colonies per plate
O=C1CCP(c2ccccc2)CC1,SW-620,MTT,,72 h,relative to: IC50 HaCaT over IC50 SW-620,selectivity index,1
C[C@]12CC[C@H](O)C[C@H]1CC[C@@H]1[C@@H]2CC[C@]2(C)[C@@H](c3ccc(=O)oc3)CC[C@]12O,MCF7,"RT-qPCR, item: GREB1",,"20 nM, 48 h, without estradiol, unit not given",relative to: untreated,mRNA level,0.585 and 0.544 and 0.622
COc1cc(Nc2ncc3c(n2)-c2ccc(Cl)cc2C(c2c(F)cccc2OC)=NC3)ccc1C(=O)O,human coronavirus OC43,virus-induced cell killing,MRC-5,maximum over 10 doses,,maximum inhibition,0%
Oc1ccc(C(c2ccc(O)cc2)(C(F)(F)F)C(F)(F)F)cc1,HepG2 spheroids,Hoechst flow cytometry,,"0.1 µM, 24 h",,G1 phase cells,73.5 ± 1.59%
COc1cc(CCC[P+](c2ccccc2)(c2ccccc2)c2ccccc2)c(OC)c2c1OCO2.[I-],COLO 205,SRB,,,,GI50,-6.04 log M
Nc1ncc(-c2nc(N3CCOCC3)nc(N3CCOCC3)n2)c(C(F)F)n1,RT-4,,,72 h,,GI50,0.305 µM
CC(C)(O)C(Cl)(Cl)Cl,THP-1,pyroptotic LDH release,,"2 µM, 40 min, together with: LPS then nigericin",,inhibition,-0.316%
Cc1ccccc1CN1CCN(CCOC(c2ccccc2)c2ccccc2Cl)CC1 (centres unmarked),HEK293T ATF4-FLuc reporter,"ATF4 reporter gene, activator, luciferase reporter",,,,EC50,0.051 µM
C[C@H]1CN(c2n[nH]c3nc(N[C@H]4CC[C@H](NS(=O)(=O)CCC(F)(F)F)CC4)ncc23)CCO1,"Transportin-3 (Homo sapiens, UniProt Q9Y5L0)",biochemical,,,,IC50,≥ 20 µM
